Earlier results, collected from citations in different studies.
Each line is one published result; not all experiments were run side by side. Numbers after ± are the reported error.

CC1(C)CCC(CN2CCN(c3ccc(C(=O)NS(=O)(=O)c4ccc(NCC5CCOCC5)c([N+](=O)[O-])c4)c(Oc4cnc5[nH]ccc5c4)c3)CC2)=C(c2ccc(Cl)cc2)C1  apparent clearance (CL/F) (legacy population PK model; human): 447 L/day
O=C(c1cc(Cc2n[nH]c(=O)c3ccccc23)ccc1F)N1CCN(C(=O)C2CC2)CC1  apparent volume of distribution (non-compartmental analysis; human, fasted; oral, 300 mg tablet): 1.34 L/kg
Cn1ncnc1[C@H]1c2n[nH]c(=O)c3cc(F)cc(c23)N[C@@H]1c1ccc(F)cc1  apparent clearance CL/F (human adults; 1000 µg/day): 5.2 ± 1.4 L/h
CNC(=O)c1ccc(N2C(=S)N(c3ccc(C#N)c(C(F)(F)F)c3)C(=O)C2(C)C)cc1F  apparent central volume Vce/Fe (human; dose not given, monotherapy): 38.5 L
CCN1CCN(Cc2ccc(Nc3ncc(F)c(-c4cc(F)c5nc(C)n(C(C)C)c5c4)n3)nc2)CC1  apparent clearance CL/F (human; oral, geometric mean): 38.3 L/h
CNS(=O)(=O)Nc1nccc(Cc2c(C)c3ccc(Oc4ncccn4)cc3oc2=O)c1F  apparent clearance (CL/F) (human; oral, single dose): 8.64 L/day
CO[C@@H](C)Cn1c(=O)n(C)c2cnc3ccc(-c4cncc(C(C)(C)O)c4)cc3c21  apparent volume Vz/F (human; 20 mg and 325 mg, day 1, mean): 198 L
Cn1ncnc1[C@H]1c2n[nH]c(=O)c3cc(F)cc(c23)N[C@@H]1c1ccc(F)cc1  apparent clearance CLt/Ft (human, advanced cancer; monotherapy): 6.37 L/h

Excerpt of the above:
Cn1ncnc1[C@H]1c2n[nH]c(=O)c3cc(F)cc(c23)N[C@@H]1c1ccc(F)cc1  apparent clearance CL/F (human adults; 1000 µg/day): 5.2 ± 1.4 L/h
